Published values gathered from unrelated publications.
Each line is one published result; not all experiments were run side by side. ± gives the spread as reported.
Target: Mu-type opioid receptor (OPRM1, Homo sapiens, UniProt P35372)
Chain of UniProt P35372 (whole entry, looked up): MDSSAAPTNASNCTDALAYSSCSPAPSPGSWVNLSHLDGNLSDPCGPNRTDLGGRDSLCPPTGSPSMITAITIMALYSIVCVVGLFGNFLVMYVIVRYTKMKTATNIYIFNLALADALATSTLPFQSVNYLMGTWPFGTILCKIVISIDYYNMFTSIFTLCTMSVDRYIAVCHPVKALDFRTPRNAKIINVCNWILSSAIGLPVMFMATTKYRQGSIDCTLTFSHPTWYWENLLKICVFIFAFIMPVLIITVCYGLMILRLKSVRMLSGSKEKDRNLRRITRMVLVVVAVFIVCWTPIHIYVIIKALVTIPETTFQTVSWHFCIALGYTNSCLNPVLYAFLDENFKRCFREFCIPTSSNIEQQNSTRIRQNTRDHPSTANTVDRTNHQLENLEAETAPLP

CO[C@@H](C)c1c(NC(=O)Nc2cnc(-n3nccn3)c(C(F)(F)F)c2)cnc2sc(C)nc12  inhibition (ligand displacement, radioligand; 10 µM): 17.4%
CCC(=O)N(C)c1ccc(Cl)c(Cl)c1  inhibition (ligand displacement, radioligand; 10 µM): < 10%
CC(C)Cn1c(SCC(=O)N2CCc3ccccc3C2)nc2cc(Cl)ccc2c1=O  inhibition (ligand displacement, radioligand; 10 µM): -4%
Cc1[nH]nc2c1N=C(c1ccccc1Cl)c1cnc(N3CCOCC3)cc1N2  inhibition (cell-free assay; 10 µM): -6%
CC(=O)[C@]12NC(C)(C)C[C@@]1(C)C(=O)C1=C2c2c(c3c4n2C(C)(C)CC2=C4[C@@]4(CC(C)(C)N[C@@](C)(C4)C2=O)CC3(C)C)C(=O)C(C)(C)N1 (racemic)  activation (cAMP level, agonist, LANCE Ultra cAMP; CHO; 10 µM): 1.18 ± 0.35%
COCC(=O)N1CCc2cc(-c3csc(NC(=O)c4cc(OC)cc(OC)c4)n3)ccc21  inhibition (cell-free assay; 10 µM): -15%
O=C1c2sc(-c3ccc(N4CCC(CO)CC4)nc3F)nc2CCN1c1cccnc1  inhibition (ligand displacement, radioligand; 1 µM): 9%
COc1ncc2nc(C)n(Cc3ncc(S(N)(=O)=O)cc3F)c2c1-c1ccccc1  activation (agonist, cell-based; 10 µM): 0.456%
C[C@H](CCC(=O)O)[C@H]1CC[C@H]2[C@@H]3[C@H](OS(=O)(=O)O)C[C@@H]4C[C@H](O)CC[C@]4(C)[C@H]3C[C@H](O)[C@]12C  inhibition (100 µM): 4%
C[Si]1(C[C@H](CN)CC(=O)O)CCCC1  inhibition (ligand displacement, radioligand; 70 µM): 11%
COc1ccc(S(=O)(=O)N2CCc3ccccc3C2)cc1N1CCN(C(=O)c2ccc(F)cc2C(F)(F)F)CC1  inhibition (ligand displacement, radioligand; 1 µM): 5.6%
C[Si](C)(C)C[C@@H](CN)CC(=O)O  inhibition (ligand displacement, radioligand; 75 µM): 4%
CC(=O)c1cnc(N)nc1N1CC[C@H]1c1nn2ccc(Cl)c2c(=O)n1-c1ccccc1  inhibition (ligand displacement, radioligand; 10 µM): 12%

Some of these lines once more:
CCC(=O)N(C)c1ccc(Cl)c(Cl)c1  inhibition (ligand displacement, radioligand; 10 µM): < 10%
CO[C@@H](C)c1c(NC(=O)Nc2cnc(-n3nccn3)c(C(F)(F)F)c2)cnc2sc(C)nc12  inhibition (ligand displacement, radioligand; 10 µM): 17.4%
